Experimental data of several laboratories.
Each line is one published result; not all experiments were run side by side. ± gives the spread as reported.
Cell line: MCF7

For `NCCCNc1n[n+]([O-])c2ccccc2[n+]1[O-]`, the IC50 was 170 ± 4 µM (cytotoxicity, MTT; 24 h, normoxia).
The IC50 of `CCC(=O)O[C@H]1[C@H](C)O[C@@H](O[C@H]2[C@H](N(C)C)[C@@H](O)[C@H](O[C@H]3[C@@H](CC=O)C[C@@H](C)[C@@H](O)/C=C/C=C/C[C@@H](C)OC(=O)C[C@@H](O)[C@@H]3OC)O[C@@H]2C)C[C@@]1(C)O` is reported as greater than 50 µM (cell growth or viability, crystal violet; 72 h).
With `C=CCc1ccc(OCc2nnc(SCC(=O)Nc3cccc(C)c3)o2)c(OC)c1` the IC50 was 45.9 µM (cell growth or viability, MTT; 72 h).
The IC50 of `CCC(O)CC(=O)O[C@@H]1C[C@@H]2[C@@]3(C)CCC[C@](C)(CC)[C@@H]3CC[C@@]2(C)[C@@H]2C[C@@H](O)C3=C(C(=O)O[C@H]3C)[C@@]12C` (some centres unmarked) is reported as no more than 25 µM (cell growth or viability, CCK-8; 24 h).
For `O=S(=O)(c1ccc2nc(Cl)c(Cl)nc2c1)N1CCCC1`, the IC50 was 31 ± 2.1 µM (cell growth; 24 h).
`N#CC(C(=O)Nc1nnc(NC(=O)c2ccccc2)s1)=C1Nc2ccccc2O1` has an IC50 of 7.7 ± 0.5 µM (48 h).
`N#Cc1c(-c2ccc(Cl)cc2)c2c(=O)[nH]nnc2n(C2CCCCC2)c1=O` has an IC50 of 1.31 µM (cell growth or viability, MTT).
The IC50 of `Cc1ccc(NC(=O)NNC(=O)CSc2nc3ccccc3c(=O)n2-c2ccc(C)cc2)cc1` is reported as 66 µM (cell growth or viability, MTT).
The IC50 of `c1ccc(P(=NCc2ccccn2)(c2ccccc2)c2ccccc2)cc1` is reported as greater than 100 µM (cell growth or viability, MTT; 74 h).
For `Brc1ccc(SSc2ccc(Br)cc2)cc1`, the IC50 was greater than 10 µM (cell growth or viability, SRB).
With `CCOC(=O)c1nc2c(c(-c3ccc(Cl)cc3)c(C#N)c(=O)n2C2CCCCC2)c(=O)[nH]1` the IC50 was 29.6 µM (cell growth or viability, MTT).
`Clc1cccc(SSc2cccc(Cl)c2)c1` gave an IC50 of greater than 10 µM (cell growth or viability, SRB).
`N#Cc1c(Nc2ccccc2)n2nc(NC(=O)c3ccccc3)sc2nc1=O` has an IC50 of 12.7 µM (cell growth or viability, MTT; 48 h).
For `O=C(c1ccc2ccccc2c1)c1cn(-c2ccccc2)nc1C1=Nn2c(nnc2SCc2ccccc2CSc2nnc3n2N=C(c2nn(-c4ccccc4)cc2C(=O)c2ccc4ccccc4c2)CS3)SC1`, the IC50 was 38.2 µM (cell growth or viability, MTT; 48 h).
`Cc1cccc(C)c1NC(=O)NNC(=O)CSc1nc2ccccc2c(=O)n1-c1ccc(Cl)cc1` gave an IC50 of 21.4 µM (cell growth or viability, MTT).
For `Nc1n[n+]([O-])c2ccccc2[n+]1[O-]`, the IC50 was 52 µM (cytotoxicity, MTT; 10% FBS medium; 6 h + 18 h, hypoxia 3% O2).
`O=C(c1ccc2ccccc2c1)c1cn(-c2ccccc2)nc1C(=O)CBr` gave an IC50 of 13.2 µM (cell growth or viability, MTT; 48 h).
`CC1=CC(=O)C(C(C)C)=CC1=O` gave an IC50 of 23 µM (cell growth or viability, MTT; 72 h).
With `C=CCc1ccc(O)c(-c2ccc(O)c(CC=C)c2)c1` the IC50 was 10 µM (cell proliferation, MTS; 72 h, with: temozolomide 250 µM).
The IC50 of `COCc1c(C(C)C)nc(C(C)C)c(/C=C/[C@@H](O)C[C@@H](O)CC(=O)O)c1-c1ccc(F)cc1` is reported as 44.5 µM (cell growth, SRB; 72 h).
`CC[C@H](CC[C@@H](C)[C@H]1CC[C@H]2[C@@H]3CC=C4C[C@@H](O)CC[C@]4(C)[C@H]3CC[C@]12C)C(C)C` gave an IC50 of 188 µg/mL (cell growth or viability, resazurin; 24 h).
`Cc1nc2ccccc2nc1SCC(=O)Nc1ccc(C(=O)Nc2ccc(O)cc2)cc1` gave an IC50 of 62.2 µM (cell growth or viability, MTT).
The IC50 of `[O-][n+]1nc(NCCCCCNc2n[n+]([O-])c3ccccc3[n+]2[O-])nc2ccccc21` is reported as greater than 30 µM (cytotoxicity, MTT; 10% FBS medium; 6 h + 18 h, hypoxia 3% O2).
`NCCCn1c2c(c3ccc(N)cc3c1=O)C(=O)c1ccccc1-2` gave an IC50 of 0.85 µM (cell growth or viability, SRB; 48 h).
`CC/C(=C(\c1ccccc1)c1ccc(OCCN(C)C(=O)CCCCOc2ccc3[nH]cc(CCNC(C)=O)c3c2)cc1)c1ccccc1` gave an IC50 of 13 µM (cell survival, MTT; day 9, dosed days 2, 4, 7).
For `CC(C)=CCC/C(C)=C/CC/C(C)=C/CC/C=C(\C)CC/C=C(\C)CCC=C(C)C`, the IC50 was 27.7 µg/mL (cell growth or viability, resazurin; 96 h).
With `c1cnc2c(c1)Nc1ncccc1S2` the IC50 was less than 5 µg/mL (cell growth or viability, WST-1; 72 h).
The IC50 of `COc1ccc(-n2c(SCC(=O)NNC(=O)Nc3c(C)cccc3C)nc3ccccc3c2=O)cc1` is reported as 78.3 µM (cell growth or viability, MTT).
With `Fc1ccc(SSc2ccc(F)cc2)cc1` the IC50 was greater than 10 µM (cell growth or viability, SRB).
`NCCCCCCNc1n[n+]([O-])c2ccccc2[n+]1[O-]` gave an IC50 of 110 ± 9.4 µM (cytotoxicity, MTT; 10% FBS medium; 6 h + 18 h, hypoxia 3% O2).
`CCOC(=O)C(C#N)=C1Sc2nc3ccc(S(=O)(=O)N4CCCC4)cc3nc2S1` gave an IC50 of 74.5 ± 3.9 µM (cell growth; 24 h).
The IC50 of `CC(=O)c1nn(-c2ccccc2Cl)/c(=N/N=C(\C)c2ccc(NC(=O)c3cccnc3)cc2)s1` is reported as 7.09 ± 0.5 µM (cytotoxicity, MTT; 24 h).
The IC50 of `N#CC(C(=O)Nc1nnc(NC(=O)c2ccccc2)s1)=C1Nc2ccccc2N1` is reported as 84.7 µM (cell growth or viability, MTT; 48 h).
The IC50 of `COc1ccc(-c2cc(-c3ccc(Cl)cc3)c3c(=O)[nH]c(=O)[nH]c3n2)cc1` is reported as less than 5 µM (cell growth or viability, MTT; 48 h).
With `COc1ccc(-n2c(SCC(=O)NNC(=O)Nc3ccccc3)nc3ccccc3c2=O)cc1` the IC50 was 6.39 µM (cell growth or viability, MTT).
`N#CC(C(=O)Nc1nnc(NC(=O)c2ccccc2)s1)C(=S)Nc1ccccc1` (centres unmarked) has an IC50 of 19.6 µM (cell growth or viability, MTT; 48 h).
For `COc1cc(-c2cc(-c3ccc(Cl)cc3)n(CN3CCCCC3)c(=O)c2C#N)ccc1O`, the IC50 was 25.4 µM (cell growth or viability, MTT).
The IC50 of `NCCCCCNc1n[n+]([O-])c2ccccc2[n+]1[O-]` is reported as greater than 76 µM (cytotoxicity, MTT; 24 h, normoxia).
`CCCCNC(=O)c1ccc(NC(=O)Cn2c(=O)c(C)nc3ccccc32)cc1` gave an IC50 of 29.3 µM (cell growth or viability, MTT).
The IC50 of `NCCCCCCCCNc1n[n+]([O-])c2ccccc2[n+]1[O-]` is reported as 214 ± 26 µM (cytotoxicity, MTT; 24 h, normoxia).
For `COc1ccc(-n2c(SCC(=O)NNC(=O)Nc3ccc(F)cc3)nc3ccccc3c2=O)cc1`, the IC50 was 10.2 µM (cell growth or viability, MTT).
For `COc1cc(C=C(C#N)C(=O)Nc2nnc(NC(=O)c3ccccc3)s2)ccc1O`, the IC50 was 13.6 µM (cell growth or viability, MTT; 48 h).
With `O=S(=O)(Sc1ccc(Br)cc1)c1ccc(Br)cc1` the IC50 was greater than 10 µM (cell growth, sulforhodamine B).
For `[O-][n+]1nc(NCCCCCCNc2n[n+]([O-])c3ccccc3[n+]2[O-])nc2ccccc21`, the IC50 was greater than 30 µM (cytotoxicity, MTT; 24 h, normoxia).
`Brc1cccc(SSc2cccc(Br)c2)c1` has an IC50 of greater than 10 µM (cell growth or viability, SRB).
`CSC(SC)=C(C#N)C(=O)Nc1nnc(NC(=O)c2ccccc2)s1` has an IC50 of 15.1 µM (cell growth or viability, MTT; 48 h).
The IC50 of `COc1ccc(-n2c(SCC(=O)NNC(=O)Nc3ccc(C)cc3)nc3ccccc3c2=O)cc1` is reported as 48.7 µM (cell growth or viability, MTT).
`CCCCNC(=O)c1ccc(NC(=O)CSc2nc3ccccc3nc2C)cc1` gave an IC50 of 62.1 µM (cell growth or viability, MTT).
The IC50 of `COc1cc(-c2cc(-c3ccc(Cl)cc3)n(CC(=O)n3nc(C)cc3C)c(=O)c2C#N)ccc1O` is reported as no less than 50 µM (cell growth or viability, MTT).
`CN1CCC2(CC1)C/C(=N\N=C\c1ccc(Cl)cc1)c1ccccc1O2` gave an IC50 of 8.74 µM (cell growth or viability, MTT; 48 h).
